Measured values from different studies.
Protocols differ between the studies behind these lines. “And” joins repeats or separate records; there may be more than shown. Numbers after ± are the reported error.
TDP1: Tyrosyl-DNA phosphodiesterase 1 (TDP1, Homo sapiens, UniProt Q9NUW8)
Sequence of UniProt Q9NUW8 (whole entry, looked up): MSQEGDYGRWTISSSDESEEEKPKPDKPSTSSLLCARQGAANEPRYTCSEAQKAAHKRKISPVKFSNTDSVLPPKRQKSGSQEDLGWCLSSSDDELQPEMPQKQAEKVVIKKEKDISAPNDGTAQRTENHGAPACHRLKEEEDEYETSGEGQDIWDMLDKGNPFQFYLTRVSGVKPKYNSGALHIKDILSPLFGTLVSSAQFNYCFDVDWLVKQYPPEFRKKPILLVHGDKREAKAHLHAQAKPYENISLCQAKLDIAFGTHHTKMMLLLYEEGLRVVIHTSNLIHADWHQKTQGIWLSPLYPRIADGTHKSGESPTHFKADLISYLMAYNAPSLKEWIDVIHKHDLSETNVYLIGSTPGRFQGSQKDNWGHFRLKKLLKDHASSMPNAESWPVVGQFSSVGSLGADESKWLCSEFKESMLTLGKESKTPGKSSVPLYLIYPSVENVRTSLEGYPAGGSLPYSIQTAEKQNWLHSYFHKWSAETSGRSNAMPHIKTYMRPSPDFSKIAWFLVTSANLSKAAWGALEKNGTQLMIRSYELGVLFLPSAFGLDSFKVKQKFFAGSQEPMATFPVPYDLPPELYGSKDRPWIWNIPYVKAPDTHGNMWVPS

SMILES	tested on	test	test system	setting	scale	quantity	value
Cc1cccc(Nc2n[nH]c3nc(-c4ccc(F)cc4F)nc(N)c23)c1	rhinovirus A2	viral cytopathic effect	HeLa	–	–	IC50	11900 nM
FC(F)(F)c1cccc(CNc2nc(NC3CCN(Cc4ccccc4)CC3)c3nc[nH]c3n2)c1	Cryptococcus neoformans	RNA-seq, refers to: TEP1 (CNAG_04833) mRNA	–	48 µg/mL, 3 h	reference: untreated wild type	log2 fold change	-0.468
CC(=O)O[C@@H]1[C@@H](OC(C)=O)[C@H](Sc2sc(C(=O)c3ccc(Cl)cc3)c(N)c2-c2nc3ccccc3s2)OC[C@H]1OC(C)=O	coxsackievirus B4	plaque reduction	–	non-toxic dose NG, mean over three titres	–	viral reduction	20%
CC1(F)CN(C(=O)Cn2c(=O)c(C(=O)NCc3ccc(Cl)cc3)cc3nc(N4CCN(CCN)C4=O)cnc32)C1	Epstein-Barr virus	viral replication, qPCR	–	retest 1	–	EC50	71 nM
Cc1cc(C(=O)Nc2nc3cccc(C)c3n2[C@H]2CCCCN(C(=O)/C=C/CN(C)C)C2)ccn1	Trypanosoma brucei rhodesiense	growth inhibition, CellTiter-Glo	STIB900	48 h, mean value	–	EC50	33 nM
CC(=O)O[C@@H]1[C@@H](OC(C)=O)[C@H](Sc2sc(C(=O)c3ccc(C)cc3)c(N)c2-c2nc3ccccc3s2)OC[C@H]1OC(C)=O	coxsackievirus B4	plaque reduction	–	non-toxic dose NG, mean over three titres	–	viral reduction	26.7%
Fc1ccc2c(c1)c1nc3ccc(Br)cc3c-1cn2Cc1cn(-c2ccccc2I)nn1	Giardia duodenalis	UHPLC-Q-TOF-MS, refers to: PC(O-14:0/2:0)	trophozoites	IC50, 0.1363 h	reference: 0.25% DMSO	fold change	2.23
CCCCCCCCn1cc[n+](CCCCCCCCOc2cc(OCCCCCCCC[n+]3ccn(CCCCCCCC)c3)cc(OCCCCCCCC[n+]3ccn(CCCCCCCC)c3)c2)c1.[Br-].[Br-].[Br-]	Enterococcus faecalis	–	OG1RF	–	–	MIC	2 µM
CC(=O)OC[C@H]1O[C@@H](Sc2sc(C(=O)c3ccc(C)cc3)c(N)c2-c2nc3ccccc3s2)[C@H](OC(C)=O)[C@@H](OC(C)=O)[C@@H]1OC(C)=O	human adenovirus 7	plaque reduction	–	non-toxic dose NG, mean over three titres	–	viral reduction	16.7%
Cc1ccc(-c2nc(N)c3c(Nc4ccc(F)cc4)n[nH]c3n2)cc1	rhinovirus A2	viral cytopathic effect	HeLa	–	–	IC50	780 nM
Cc1ccc(S(=O)(=O)Nn2c3c(cc(-c4nc5ccccc5s4)c2=O)CCCCCC3)cc1	coxsackievirus B4	viral replication, plaque	BGM	non-toxic dose, mean of three titres	–	plaque reduction	60%
CCCCC(CC)COC(=O)CC(C(=O)OCC(CC)CCCC)S(=O)(=O)O.COC(=O)Nc1nc2cc(C(=O)c3ccccc3)ccc2[nH]1 (stereo not shown)	Cryptococcus neoformans var. grubii	EUCAST broth microdilution	KN99α reference strain	72 h, 37 °C, RPMI with 2% glucose	–	IC90	1250 nM
C/C=C(/C)C(=O)O[C@@H]1C=C(C)CC[C@]2(O)[C@@H](C(C)C)CC(=O)[C@]12C	Helicobacter pylori	microbial growth, broth dilution	–	0.98 µg/mL	–	inhibition	0%
CC(=O)O[C@@H]1[C@@H](OC(C)=O)[C@H](Sc2sc(C(=O)c3ccc(Br)cc3)c(N)c2-c2nc3ccccc3s2)OC[C@H]1OC(C)=O	human adenovirus 7	plaque reduction	–	non-toxic dose NG, mean over three titres	–	viral reduction	36.7%
O=C(O)c1ccc(Nc2c(-c3ccc(CON=Cc4ccc(CN5C(=O)c6ccccc6C5=O)o4)cc3)nc3cc(-c4ccccc4)ccn23)cc1 (mixture of isomers)	TDP1	enzyme activity, inhibitor	–	100 µM, unpurified compound	–	inhibition	87.6%
Cc1ccc(-c2nc(N)c3c(Nc4ccc(F)cc4)n[nH]c3n2)cc1F	rhinovirus A2	viral cytopathic effect	HeLa	–	–	IC50	2550 nM
CCOC(=O)c1cc(-c2nc3ccccc3s2)c(=O)n(NS(=O)(=O)c2ccc(Cl)cc2)c1N	coxsackievirus B4	viral replication, plaque	BGM	non-toxic dose, mean of three titres	–	plaque reduction	0%

SMILES	tested on	test	test system	setting	scale	quantity	value
C[C@@H]1C(=O)O[C@@H](C)/C=C/C=C\[C@@H](C)[C@@H]2C=C[C@@H]3C[C@@]4(C)O[C@H]4[C@@H](C)[C@H]3[C@@H]2C(=O)C(Cl)(Cl)C1=O	Staphylococcus aureus	–	MRSA clinical isolate	resistant: OXA,GEN	–	MIC	0.1 µg/mL
CO[C@@H]1OC[C@@H](O)[C@H](O)[C@H]1O	Helicobacter pylori	microbial growth, broth dilution	–	0.24 µg/mL	–	inhibition	0%
Cc1ccc(Nc2n[nH]c3nc(-c4ccc(F)cc4)nc(N)c23)cc1	rhinovirus A2	viral cytopathic effect	HeLa	–	–	IC50	13500 nM
O=C(CCCc1cn(C[C@H]2O[C@@H]3O[C@H]4[C@H](O)[C@@H](O)[C@@H](O[C@H]5[C@H](O)[C@@H](O)[C@@H](O[C@H]6[C@H](O)[C@@H](O)[C@@H](O[C@H]7[C@H](O)[C@@H](O)[C@@H](O[C@H]8[C@H](O)[C@@H](O)[C@@H](O[C@H]9[C@H](O)[C@@H](O)[C@@H](O[C@H]2[C@H](O)[C@H]3O)O[C@@H]9Cn2cc(CCCC(=O)N[C@H]3CCOC3=O)nn2)O[C@@H]8Cn2cc(CCCC(=O)N[C@H]3CCOC3=O)nn2)O[C@@H]7Cn2cc(CCCC(=O)N[C@H]3CCOC3=O)nn2)O[C@@H]6Cn2cc(CCCC(=O)N[C@H]3CCOC3=O)nn2)O[C@@H]5Cn2cc(CCCC(=O)N[C@H]3CCOC3=O)nn2)O[C@@H]4Cn2cc(CCCC(=O)N[C@H]3CCOC3=O)nn2)nn1)N[C@H]1CCOC1=O	Escherichia coli	LuxR reporter, antagonist	DH5α sensor strain	200 µM, together with: OHHL 200 nM	–	inhibition	56 ± 1%
C=C[C@]1(C)C[C@@H](OC(=O)CSc2ccc(NC(=O)c3ccco3)cc2)[C@]2(C)[C@H](C)CC[C@]3(CCC(=O)[C@H]32)[C@@H](C)[C@@H]1O	Mycoplasma gallisepticum	–	infected chickens	intramuscular, 10 mg/kg daily x3, scale 0 to 4	direction not given	air sac lesion score	3 and 1 and 2
CCCCCCCCCC(=O)N[C@@H](Cc1c[nH]c2ccccc12)C(=O)N[C@H](CC(N)=O)C(=O)N[C@@H](CC(=O)O)C(=O)N[C@@H]1C(=O)NCC(=O)N[C@@H](CCCNC(=O)OC2/C=C/CCCCC2)C(=O)N[C@@H](CC(=O)O)C(=O)N[C@H](C)C(=O)N[C@@H](CC(=O)O)C(=O)NCC(=O)N[C@H](CO)C(=O)N[C@@H]([C@H](C)CC(=O)O)C(=O)N[C@@H](CC(=O)c2ccccc2N)C(=O)O[C@@H]1C (stereo partly shown)	Staphylococcus aureus	planktonic bacterial growth, isothermal microcalorimetry	MSSA	1.5 µg/mL, 24 h, 37 °C	–	peak heat flow	0 µW
CC(C)(C)NCC(SS(=O)(=O)O)c1ccccc1 (stereo not shown)	Schistosoma mansoni	perfusion day 52	infected Swiss Webster mice	400 mg/kg single dose, 1248 h, dosed day 7 post-infection	–	spleen weight	0.81 g
Cc1nn2c(C(F)(F)F)ccnc2c1C=NOCc1ccc2nc(-c3ccccc3)c(Nc3ccc(C(=O)O)cc3)n2c1 (mixture of isomers)	TDP1	enzyme activity, inhibitor	–	100 µM, unpurified compound	–	inhibition	-28.5%
Cc1ccc(S(=O)(=O)Nn2c3c(cc(-c4nc5ccccc5s4)c2=O)CCCC3)cc1	coxsackievirus B4	viral replication, plaque	BGM	non-toxic dose, mean of three titres	–	plaque reduction	50%
CC(=O)OC[C@H]1O[C@@H](Sc2sc(C(=O)c3ccc(Cl)cc3)c(N)c2-c2nc3ccccc3s2)[C@H](OC(C)=O)[C@@H](OC(C)=O)[C@@H]1OC(C)=O	coxsackievirus B4	plaque reduction	–	non-toxic concentration	–	viral titre reduction	20%
CC(C)[C@@H]1NC(=O)[C@@H](CCCNC(=N)N)NC(=O)[C@H]([C@@H](C)O)NC(=O)[C@@H](CCCN)NC(=O)[C@H](Cc2ccc(F)c(F)c2)NC(=O)[C@@H](Cc2ccccc2)NC1=O	Balamuthia mandrillaris	parasite growth, ATP luminescence	–	–	–	IC90	> 20000 nM
Cc1cccc(Nc2n[nH]c3nc(-c4ccccc4)nc(N)c23)c1	rhinovirus A2	viral cytopathic effect	HeLa	–	–	IC50	4420 nM
C=C(NC(=O)c1csc(-c2nc3c(cc2O)-c2nc(cs2)C(=O)NC(C(C)O)C(=O)NC(=C(C)OC)c2nc(cs2)C(=O)NC2c4nc(cs4)C(=O)NC(COC(=O)c4c5c6c(cccc6n4O)COC(=O)C(OC4CC(C)(O)C(N(C)C)C(C)O4)C2OC5)c2nc-3cs2)n1)C(N)=O (stereo not shown)	Staphylococcus aureus	–	ATCC 43300 MRSA	2 x MIC, 3 h exposure	–	post-antibiotic effect	1.44 ± 0.3 h
CO[C@@H]1[C@@H](OC)[C@H]2O[C@H]3[C@H](OC)[C@@H](OC)[C@@H](O[C@H]4[C@H](OC)[C@@H](OC)[C@@H](O[C@H]5[C@H](OC)[C@@H](OC)[C@@H](O[C@H]6[C@H](OC)[C@@H](OC)[C@@H](O[C@H]7[C@H](OC)[C@@H](OC)[C@@H](O[C@H]8[C@H](OC)[C@@H](OC)[C@@H](O[C@@H]1[C@@H](Cn1cc(CCCC(=O)N[C@H]9CCOC9=O)nn1)O2)O[C@@H]8Cn1cc(CCCC(=O)N[C@H]2CCOC2=O)nn1)O[C@@H]7Cn1cc(CCCC(=O)N[C@H]2CCOC2=O)nn1)O[C@@H]6Cn1cc(CCCC(=O)N[C@H]2CCOC2=O)nn1)O[C@@H]5Cn1cc(CCCC(=O)N[C@H]2CCOC2=O)nn1)O[C@@H]4Cn1cc(CCCC(=O)N[C@H]2CCOC2=O)nn1)O[C@@H]3Cn1cc(CCCC(=O)N[C@H]2CCOC2=O)nn1	Escherichia coli	LuxR reporter, antagonist	DH5α sensor strain	4 µM, together with: OHHL 200 nM	–	inhibition	19 ± 1%
CC(=O)OC[C@H]1O[C@@H](Sc2sc(C(=O)c3ccc(Br)cc3)c(N)c2-c2nc3ccccc3s2)[C@H](OC(C)=O)[C@@H](OC(C)=O)[C@H]1OC(C)=O	coxsackievirus B4	plaque reduction	–	non-toxic concentration	–	viral titre reduction	40%
CC=C(C)C(=O)OC1CC2C(C=C(C)C3C(OC(C)=O)CC(=O)C13C)OC(=O)C2C (stereo not shown)	Helicobacter pylori	microbial growth, broth dilution	–	3.9 µg/mL	–	inhibition	0%
Cc1cccc2c1N(C(=O)n1ccnn1)CC2	Arabidopsis thaliana	–	wild type	0.1 µM, seedlings	–	hypocotyl length	10.7 mm

A few entries again:
SMILES	tested on	test	test system	setting	scale	quantity	value
C[C@@H]1C(=O)O[C@@H](C)/C=C/C=C\[C@@H](C)[C@@H]2C=C[C@@H]3C[C@@]4(C)O[C@H]4[C@@H](C)[C@H]3[C@@H]2C(=O)C(Cl)(Cl)C1=O	Staphylococcus aureus	–	MRSA clinical isolate	resistant: OXA,GEN	–	MIC	0.1 µg/mL
CC(=O)OC[C@H]1O[C@@H](Sc2sc(C(=O)c3ccc(Cl)cc3)c(N)c2-c2nc3ccccc3s2)[C@H](OC(C)=O)[C@@H](OC(C)=O)[C@@H]1OC(C)=O	coxsackievirus B4	plaque reduction	–	non-toxic concentration	–	viral titre reduction	20%
CO[C@@H]1OC[C@@H](O)[C@H](O)[C@H]1O	Helicobacter pylori	microbial growth, broth dilution	–	0.24 µg/mL	–	inhibition	0%
Cc1nn2c(C(F)(F)F)ccnc2c1C=NOCc1ccc2nc(-c3ccccc3)c(Nc3ccc(C(=O)O)cc3)n2c1 (mixture of isomers)	TDP1	enzyme activity, inhibitor	–	100 µM, unpurified compound	–	inhibition	-28.5%
Fc1ccc2c(c1)c1nc3ccc(Br)cc3c-1cn2Cc1cn(-c2ccccc2I)nn1	Giardia duodenalis	UHPLC-Q-TOF-MS, refers to: PC(O-14:0/2:0)	trophozoites	IC50, 0.1363 h	reference: 0.25% DMSO	fold change	2.23
